{"data": "Published values collected from several papers", "note": "Numbered parts are unrelated; each lists some results of a single study."}
{"data": "Sample 1", "organism": "SARS-CoV-2 Wuhan spike VSV pseudovirus", "observed": "pseudovirus entry", "concentration": "concentration not given"}
{"Compound": "CCN(CC)CCNC(=O)c1ccc(Nc2cc(-c3cccc(C)c3)ncn2)cc1", "inhibition [%]": 44}
{"Compound": "O=C(NCCc1nc2ccccc2[nH]1)c1cc(COc2ccccc2)[nH]n1", "inhibition [%]": 40}
{"Compound": "CN(CCCNC(=O)c1ccc(Nc2cc(-c3ccc(F)cc3)ncn2)cc1)c1ccccc1", "inhibition [%]": 45}
{"Compound": "CCOC(=O)N1CCN(C(=O)CCc2nnc(CCCc3ccccc3)o2)CC1", "inhibition [%]": 40}
{"Compound": "CCOC(=O)c1cnn(-c2ccc(C(=O)NCC3CCN(Cc4ccc(Cl)cc4)CC3)cc2)c1N", "inhibition [%]": 39}
{"Compound": "O=C(Nc1nc2c(s1)CN(Cc1ccccc1)CC2)c1ccc(Cl)cc1", "inhibition [%]": 40}
{"data": "Further values, each from its own experiment", "rep nsp14": "Replicase polyprotein 1ab, nsp14 (rep, Severe acute respiratory syndrome coronavirus 2, UniProt P0DTD1)", "rep papain-like protease": "Replicase polyprotein 1ab, papain-like protease (rep, Severe acute respiratory syndrome coronavirus 2, UniProt P0DTD1)", "rep nsp12 RdRp": "Replicase polyprotein 1ab, nsp12 RdRp (rep, Severe acute respiratory syndrome coronavirus 2, UniProt P0DTD1)"}
{"SMILES": "Nc1ncnc2c1ncn2[C@@H]1O[C@H](CSCC[C@H](N)C(=O)O)[C@@H](O)[C@H]1O", "target": "rep nsp14", "test": "thermal shift", "conditions": "62.5 µM", "quantity": "ΔTm", "value": "8.7 °C"}
{"SMILES": "O=C(Nc1cc(C(F)(F)F)ccc1N1CCCCC1)c1ccncc1", "target": "rep papain-like protease", "conditions": "concentration not given, C111S mutant", "scale": "reference: positive control", "quantity": "activity", "value": "28.3%"}
{"SMILES": "COc1ccc2c(c1)C(=O)N(CCc1ccc(S(=O)(=O)NC(=O)NC3CCCCC3)cc1)C(=O)C2(C)C", "target": "rep nsp12 RdRp", "test": "binding, biolayer interferometry", "conditions": "concentration not given", "quantity": "BLI response", "value": "0.01 nm"}
{"SMILES": "O=c1cc(-c2ccc(Oc3c(O)cc4oc(-c5ccc(O)cc5)cc(=O)c4c3O)cc2)oc2cc(O)cc(O)c12", "target": "rep papain-like protease", "conditions": "concentration not given, C111S mutant", "scale": "reference: positive control", "quantity": "activity", "value": "7.88%"}
{"SMILES": "COc1ncc(-c2ccc3nccc(-c4ccnnc4)c3c2)cc1NS(=O)(=O)c1ccc(F)cc1F", "target": "rep nsp12 RdRp", "test": "binding, biolayer interferometry", "conditions": "concentration not given", "quantity": "BLI response", "value": "-0.02 nm"}
{"SMILES": "O=C(NC1CCN(c2ncnc3[nH]cnc23)CC1)c1cccc(NS(=O)(=O)c2cccnc2)c1", "target": "rep nsp14", "test": "enzyme activity", "test system": "SARS-CoV-2", "conditions": "concentration not given", "quantity": "inhibition", "value": "27.8%"}
{"note": "For quick reference, copied from above (further values, each from its own experiment):"}
{"SMILES": "Nc1ncnc2c1ncn2[C@@H]1O[C@H](CSCC[C@H](N)C(=O)O)[C@@H](O)[C@H]1O", "target": "rep nsp14", "test": "thermal shift", "conditions": "62.5 µM", "quantity": "ΔTm", "value": "8.7 °C"}
{"SMILES": "O=C(Nc1cc(C(F)(F)F)ccc1N1CCCCC1)c1ccncc1", "target": "rep papain-like protease", "conditions": "concentration not given, C111S mutant", "scale": "reference: positive control", "quantity": "activity", "value": "28.3%"}
